{"data": "Measured values from different studies", "note": "Protocols differ between the studies behind these lines. Numbers after ± are the reported error.", "chain of UniProt P34975 (whole entry, looked up)": "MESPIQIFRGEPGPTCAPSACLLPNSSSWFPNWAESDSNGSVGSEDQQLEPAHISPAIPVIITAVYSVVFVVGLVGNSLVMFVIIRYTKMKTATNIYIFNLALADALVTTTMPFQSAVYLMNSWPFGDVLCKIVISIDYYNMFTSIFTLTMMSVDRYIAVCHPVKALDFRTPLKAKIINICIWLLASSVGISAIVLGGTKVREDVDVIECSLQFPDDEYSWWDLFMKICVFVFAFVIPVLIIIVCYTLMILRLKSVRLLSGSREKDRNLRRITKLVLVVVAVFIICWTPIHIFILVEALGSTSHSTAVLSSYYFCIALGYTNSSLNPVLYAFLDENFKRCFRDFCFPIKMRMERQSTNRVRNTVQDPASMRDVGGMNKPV", "chain of UniProt Q96KQ7 (whole entry, looked up)": "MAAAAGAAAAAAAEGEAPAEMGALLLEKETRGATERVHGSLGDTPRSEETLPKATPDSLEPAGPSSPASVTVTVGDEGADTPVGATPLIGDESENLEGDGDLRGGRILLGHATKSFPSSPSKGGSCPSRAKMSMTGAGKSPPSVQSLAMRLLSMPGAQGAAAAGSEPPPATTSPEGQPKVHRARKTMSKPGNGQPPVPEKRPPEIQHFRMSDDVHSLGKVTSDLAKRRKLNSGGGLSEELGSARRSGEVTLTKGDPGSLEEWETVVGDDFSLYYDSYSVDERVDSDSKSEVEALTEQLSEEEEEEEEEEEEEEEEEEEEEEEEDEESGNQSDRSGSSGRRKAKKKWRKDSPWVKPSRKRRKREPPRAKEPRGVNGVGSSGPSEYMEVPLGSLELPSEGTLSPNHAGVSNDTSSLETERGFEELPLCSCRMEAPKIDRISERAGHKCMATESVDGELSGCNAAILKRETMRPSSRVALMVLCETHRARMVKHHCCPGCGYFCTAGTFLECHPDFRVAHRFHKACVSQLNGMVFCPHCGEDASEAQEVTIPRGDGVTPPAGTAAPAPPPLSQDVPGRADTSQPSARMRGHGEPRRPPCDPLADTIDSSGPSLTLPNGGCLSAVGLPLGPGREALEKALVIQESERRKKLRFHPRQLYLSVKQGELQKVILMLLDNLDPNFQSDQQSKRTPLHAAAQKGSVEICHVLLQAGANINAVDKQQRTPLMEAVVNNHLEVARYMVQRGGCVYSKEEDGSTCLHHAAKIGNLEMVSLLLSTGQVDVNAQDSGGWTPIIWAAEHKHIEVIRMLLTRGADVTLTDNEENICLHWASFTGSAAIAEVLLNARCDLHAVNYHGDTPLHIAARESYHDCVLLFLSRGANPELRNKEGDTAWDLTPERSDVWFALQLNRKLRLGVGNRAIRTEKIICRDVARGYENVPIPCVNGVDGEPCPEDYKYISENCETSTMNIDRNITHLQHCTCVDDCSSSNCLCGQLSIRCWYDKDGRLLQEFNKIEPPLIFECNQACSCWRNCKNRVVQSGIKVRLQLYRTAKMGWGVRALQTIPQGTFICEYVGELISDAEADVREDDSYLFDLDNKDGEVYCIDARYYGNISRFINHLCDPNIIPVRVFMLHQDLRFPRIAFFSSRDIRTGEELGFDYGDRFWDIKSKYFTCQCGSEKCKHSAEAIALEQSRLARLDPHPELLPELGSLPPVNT", "chain of UniProt Q04828 (whole entry, looked up)": "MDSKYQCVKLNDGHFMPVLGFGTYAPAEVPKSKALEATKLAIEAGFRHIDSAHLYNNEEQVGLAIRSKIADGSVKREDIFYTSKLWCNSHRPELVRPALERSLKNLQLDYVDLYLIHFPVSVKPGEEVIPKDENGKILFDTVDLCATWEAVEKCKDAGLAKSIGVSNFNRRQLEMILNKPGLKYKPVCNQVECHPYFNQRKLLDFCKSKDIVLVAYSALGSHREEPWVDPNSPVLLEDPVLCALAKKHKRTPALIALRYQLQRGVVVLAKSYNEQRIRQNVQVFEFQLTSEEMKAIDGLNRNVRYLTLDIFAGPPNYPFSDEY", "chain of UniProt Q8WUI4 (whole entry, looked up)": "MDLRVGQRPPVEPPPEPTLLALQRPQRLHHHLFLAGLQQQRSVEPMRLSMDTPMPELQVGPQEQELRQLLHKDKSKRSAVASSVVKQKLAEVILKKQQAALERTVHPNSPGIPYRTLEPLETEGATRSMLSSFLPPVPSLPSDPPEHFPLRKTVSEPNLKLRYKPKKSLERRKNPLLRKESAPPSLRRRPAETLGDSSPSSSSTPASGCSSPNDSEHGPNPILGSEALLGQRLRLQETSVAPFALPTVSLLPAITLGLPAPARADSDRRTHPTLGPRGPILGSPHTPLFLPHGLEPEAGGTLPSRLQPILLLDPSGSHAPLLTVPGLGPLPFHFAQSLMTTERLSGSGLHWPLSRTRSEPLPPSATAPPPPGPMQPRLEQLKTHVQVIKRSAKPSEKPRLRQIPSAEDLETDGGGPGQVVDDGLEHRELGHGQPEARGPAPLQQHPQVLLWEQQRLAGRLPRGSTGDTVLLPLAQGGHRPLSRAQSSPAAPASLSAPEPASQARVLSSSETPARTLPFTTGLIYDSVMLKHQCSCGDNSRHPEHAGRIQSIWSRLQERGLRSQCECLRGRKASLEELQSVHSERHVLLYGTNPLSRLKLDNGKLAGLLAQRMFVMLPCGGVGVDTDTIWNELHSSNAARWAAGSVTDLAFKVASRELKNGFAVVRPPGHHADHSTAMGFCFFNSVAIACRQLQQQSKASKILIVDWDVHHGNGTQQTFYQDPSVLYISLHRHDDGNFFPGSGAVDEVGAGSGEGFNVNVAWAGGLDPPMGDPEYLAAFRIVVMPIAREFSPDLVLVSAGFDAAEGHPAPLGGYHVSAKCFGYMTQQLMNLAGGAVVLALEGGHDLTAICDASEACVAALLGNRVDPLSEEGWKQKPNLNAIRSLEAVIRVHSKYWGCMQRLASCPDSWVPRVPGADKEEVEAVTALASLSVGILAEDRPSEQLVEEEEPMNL", "chain of UniProt P03303 (whole entry, looked up)": "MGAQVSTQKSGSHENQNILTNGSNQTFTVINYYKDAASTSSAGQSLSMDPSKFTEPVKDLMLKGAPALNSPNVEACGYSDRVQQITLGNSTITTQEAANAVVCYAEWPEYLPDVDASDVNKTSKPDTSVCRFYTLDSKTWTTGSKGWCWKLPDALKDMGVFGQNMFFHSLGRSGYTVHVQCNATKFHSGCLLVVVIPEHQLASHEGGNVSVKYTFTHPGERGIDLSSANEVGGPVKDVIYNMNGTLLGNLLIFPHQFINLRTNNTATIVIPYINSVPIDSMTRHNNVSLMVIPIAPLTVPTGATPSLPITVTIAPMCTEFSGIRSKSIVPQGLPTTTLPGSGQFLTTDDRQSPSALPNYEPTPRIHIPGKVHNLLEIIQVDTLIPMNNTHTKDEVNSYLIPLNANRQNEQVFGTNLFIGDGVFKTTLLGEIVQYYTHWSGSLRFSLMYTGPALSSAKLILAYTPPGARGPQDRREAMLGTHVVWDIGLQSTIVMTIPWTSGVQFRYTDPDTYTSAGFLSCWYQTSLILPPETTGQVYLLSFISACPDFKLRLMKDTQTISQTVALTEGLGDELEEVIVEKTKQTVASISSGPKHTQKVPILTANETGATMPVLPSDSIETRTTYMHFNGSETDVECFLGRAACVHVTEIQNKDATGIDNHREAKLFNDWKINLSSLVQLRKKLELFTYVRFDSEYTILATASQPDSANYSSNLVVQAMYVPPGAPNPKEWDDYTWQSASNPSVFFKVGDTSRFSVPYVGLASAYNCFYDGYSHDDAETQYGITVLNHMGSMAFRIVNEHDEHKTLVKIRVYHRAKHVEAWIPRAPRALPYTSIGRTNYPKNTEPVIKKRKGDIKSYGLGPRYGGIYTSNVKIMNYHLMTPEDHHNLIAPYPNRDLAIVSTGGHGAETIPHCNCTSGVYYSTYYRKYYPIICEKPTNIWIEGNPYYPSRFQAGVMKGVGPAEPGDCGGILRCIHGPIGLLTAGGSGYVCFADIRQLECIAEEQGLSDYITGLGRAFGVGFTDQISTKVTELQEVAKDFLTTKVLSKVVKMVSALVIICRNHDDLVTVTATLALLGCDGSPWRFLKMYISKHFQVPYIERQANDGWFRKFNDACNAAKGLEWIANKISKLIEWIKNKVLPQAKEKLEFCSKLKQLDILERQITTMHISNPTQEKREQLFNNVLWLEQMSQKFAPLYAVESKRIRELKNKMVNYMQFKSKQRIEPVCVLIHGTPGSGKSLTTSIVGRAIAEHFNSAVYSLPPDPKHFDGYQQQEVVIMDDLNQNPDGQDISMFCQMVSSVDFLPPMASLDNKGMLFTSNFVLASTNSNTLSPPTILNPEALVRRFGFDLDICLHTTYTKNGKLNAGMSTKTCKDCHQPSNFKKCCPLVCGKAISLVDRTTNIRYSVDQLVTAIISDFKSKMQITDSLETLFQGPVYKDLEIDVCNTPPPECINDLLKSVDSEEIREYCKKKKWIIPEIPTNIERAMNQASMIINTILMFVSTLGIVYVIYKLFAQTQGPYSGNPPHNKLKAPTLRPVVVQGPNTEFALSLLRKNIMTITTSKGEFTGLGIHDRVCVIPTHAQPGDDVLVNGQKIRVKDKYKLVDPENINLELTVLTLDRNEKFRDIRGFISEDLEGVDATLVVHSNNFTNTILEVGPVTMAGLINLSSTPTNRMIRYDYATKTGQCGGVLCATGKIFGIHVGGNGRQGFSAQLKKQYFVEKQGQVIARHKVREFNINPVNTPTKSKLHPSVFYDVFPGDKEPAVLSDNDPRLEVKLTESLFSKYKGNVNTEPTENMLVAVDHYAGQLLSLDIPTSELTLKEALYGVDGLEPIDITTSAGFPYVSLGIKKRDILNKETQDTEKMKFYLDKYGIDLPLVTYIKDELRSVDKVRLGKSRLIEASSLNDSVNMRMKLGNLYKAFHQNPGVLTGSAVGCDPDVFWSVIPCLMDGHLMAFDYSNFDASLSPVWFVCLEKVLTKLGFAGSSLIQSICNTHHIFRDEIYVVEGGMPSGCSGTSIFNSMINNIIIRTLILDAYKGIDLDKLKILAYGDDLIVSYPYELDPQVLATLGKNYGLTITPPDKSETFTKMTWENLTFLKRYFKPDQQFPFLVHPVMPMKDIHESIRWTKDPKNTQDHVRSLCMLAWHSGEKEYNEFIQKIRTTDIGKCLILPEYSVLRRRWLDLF"}
{"Compound": "Cc1ccc(C(C)C)cc1.[Au][S]C1=NCCS1.[Cl][Ru][Cl].c1ccc(P(CP(c2ccccc2)c2ccccc2)c2ccccc2)cc1", "target": "Cathepsin B (CTSB, Homo sapiens, UniProt P07858)", "assay": "enzyme activity, inhibitor, fluorescence", "IC50 [nM]": 190000}
{"Compound": "C[C@H](CS)C(=O)Nc1cc(-n2nccn2)cc2c1OCO2", "target": "VIM-2 (Escherichia coli, UniProt Q5U7L7)", "assay": "enzyme activity, inhibitor, fluorescence", "setting": "with preincubation", "IC50 [nM]": 25.1}
{"Compound": "Nc1ccn(CC2COP(=O)(OCCCCCCCCCCCCNC(=O)CCCCC3SCC4NC(=O)NC43)CO2)c(=O)n1 (mixture of isomers)", "target": "Sodium-dependent multivitamin transporter (Canis lupus familiaris, UniProt A0A8I3MY61)", "assay": "biotin uptake", "system": "MDCK-MDR1", "setting": "added: [3H]-biotin", "IC50 [nM]": "2900 ± 70"}
{"Compound": "CNC(C)CCc1ccccc1Cl (racemic)", "target": "ADRB2 (Homo sapiens, UniProt P07550)", "assay": "β-arrestin recruitment, antagonist", "IC50 [nM]": "> 10000"}
{"Compound": "CC(C)[C@H](NC(=O)[C@H](CO)NC(=O)[C@@H](N)CC(=O)O)C(=O)N[C@H]1CSC(=O)[C@H](Cc2ccccc2)NC(=O)[C@H](Cc2ccc(O)cc2)NC(=O)[C@H](CO)NC(=O)[C@H](C)NC1=O", "target": "Accessory gene regulator protein C (Staphylococcus aureus, UniProt Q309Z2)", "IC50 [nM]": "> 1000"}
{"Compound": "O=C1c2ccccc2[Se](=O)N1c1ccccc1 (stereo not shown)", "target": "HDAC7 (Homo sapiens, UniProt Q8WUI4)", "assay": "enzyme activity, inhibitor, fluorescence", "IC50 [nM]": 1880}
{"Compound": "Cn1c(C(=O)NCCN2CCC3(CC2)C(=O)NCN3Cc2cccnc2)cc2ccccc21", "target": "Phospholipase D2 (Homo sapiens, UniProt O14939)", "assay": "enzyme activity, inhibitor", "IC50 [nM]": "> 20000"}
{"Compound": "N#Cc1cn([C@@H]2O[C@H](CSCC[C@H](N)C(=O)O)[C@@H](O)[C@H]2O)c2ncnc(N)c12", "target": "EHMT2 (Homo sapiens, UniProt Q96KQ7)", "assay": "enzyme activity, inhibitor, radiometric", "IC50 [nM]": "> 50000"}
{"Compound": "CC[N+](C)(CC)CCC[n+]1c(-c2ccccc2)c2cc(N)ccc2c2ccc(N)cc21", "target": "RNMT (Homo sapiens, UniProt O43148)", "assay": "enzyme activity, inhibitor", "IC50 [nM]": 5500}
{"Compound": "COc1cccc2[nH]c(C(=O)N[C@@H](CC(C)C)C(=O)N[C@@H](C[C@@H]3CCNC3=O)C(=O)CO)cc12", "target": "Genome polyprotein, 3C protease (rhinovirus B14, UniProt P03303)", "assay": "enzyme activity, inhibitor, SAMDI-MS", "system": "human rhinovirus", "setting": "30 min preincubation, added: substrate 10 µM", "IC50 [nM]": 2790}
{"Compound": "C[C@@]12CC[C@@H]3c4cc(Cl)c(O)c(Cl)c4CC[C@H]3[C@@H]1CCC2=O", "target": "AKR1C1 (Homo sapiens, UniProt Q04828)", "assay": "enzyme activity, inhibitor, absorbance", "setting": "pH 9", "IC50 [nM]": 2800}
{"Compound": "CC[C@H](C)[C@H](NC(=O)CNCCOC)C(=O)N[C@@H](CO)C(=O)N[C@@H](CCC(N)=O)C(=O)N[C@H](C(=O)N[C@@H](CC(N)=O)C(=O)N[C@@H](CCC(=O)O)C(=O)N[C@@H](CCCCN)C(=O)N[C@H](C(=O)N[C@@H](CC(N)=O)C(=O)N[C@@H](CCC(N)=O)C(=O)N[C@@H](CO)C(=O)N[C@@H](CC(C)C)C(=O)N[C@@H](C)C(=O)N[C@@H](Cc1ccccc1)C(=O)N[C@H](C(=O)N[C@@H](CCCNC(=N)N)C(=O)N[C@@H](CCCCN)C(=O)N[C@@H](CO)C(=O)N[C@@H](CC(=O)O)C(=O)N[C@@H](CCC(=O)O)C(=O)O)[C@@H](C)CC)[C@@H](C)CC)C(C)C", "target": "hRSV fusion protein 5-helix bundle", "assay": "binding, fluorescence polarization", "setting": "added: Fl-C35 tracer 5 nM", "IC50 [nM]": "> 200000"}
{"Compound": "CC[C@H](C)[C@H](NC(=O)[C@@H](N)Cc1ccc(O)cc1)C(=O)N[C@@H](Cc1ccccc1)C(=O)N[C@@H](CC(N)=O)C(=O)N[C@@H](CC(C)C)C(=O)O", "target": "Oprk1 (Rattus norvegicus, UniProt P34975)", "assay": "radioligand binding, inhibitor", "system": "rat brain membranes", "setting": "added: [3H]U69593", "IC50 [nM]": "0.185 ± 1.1e-12"}
{"note": "Excerpt of the above:"}
{"Compound": "CC(C)[C@H](NC(=O)[C@H](CO)NC(=O)[C@@H](N)CC(=O)O)C(=O)N[C@H]1CSC(=O)[C@H](Cc2ccccc2)NC(=O)[C@H](Cc2ccc(O)cc2)NC(=O)[C@H](CO)NC(=O)[C@H](C)NC1=O", "target": "Accessory gene regulator protein C (Staphylococcus aureus, UniProt Q309Z2)", "IC50 [nM]": "> 1000"}
{"Compound": "O=C1c2ccccc2[Se](=O)N1c1ccccc1 (stereo not shown)", "target": "HDAC7 (Homo sapiens, UniProt Q8WUI4)", "assay": "enzyme activity, inhibitor, fluorescence", "IC50 [nM]": 1880}
